# Results gathered from unrelated publications.
# Protocols differ between the studies behind these lines. Several values in a cell are separate wells, animals, samples, runs or records. ± marks the error that the study gave.
# Organism: Cryptosporidium parvum
SMILES,test,test system,conditions,how to read,measurement,value
COc1ccc(NC(=O)N2CCCCN3[C@H](CN(C)S(C)(=O)=O)[C@H](c4ccc(C#Cc5ccccc5)cc4)[C@@H]3C2)cc1,parasite growth,Iowa (Sterling),,,EC50,0.005 µM
NC(N)=O,image-based,HCT-8,"1 mM, 24 h post-infection",relative to: PBS,relative parasite number,0.998 ± 0.072
O=C(Cc1cccc(C(F)(F)F)c1F)N1CCN(c2ccc3nncn3n2)CC1,high-content imaging,HCT-8,,,EC50,> 25 µM
CC(=O)O,image-based,HCT-8,"1 mM, 24 h post-infection",relative to: PBS,relative parasite number,1.03 ± 0.121
Cc1ccc(C(=O)c2cc(O)c(O)c([N+](=O)[O-])c2)cc1,parasite growth,HCT-8,44 h,,EC50,no effect
O=C(Cc1ccc(F)cc1)N1CCN(c2ccc3nncn3n2)CC1,high-content imaging,HCT-8,,,EC50,0.86 µM
COc1ccc(NC(=O)N2CCCCN3[C@H](CN(C)C)[C@H](c4ccc(C#Cc5ccccc5)cc4)[C@@H]3C2)cc1,,HCT-8,"concentration not given, 99.9% elimination",,time to eliminate parasites,~95 h
O=C(Cc1cc(Cl)cc(C(F)(F)F)c1)N1CCN(c2ccc3nncn3n2)CC1,"parasite growth, high-content microscopy",HCT-8,,"relative to: 3,5-dichloro analogue over compound EC50",potency fold increase,2 fold
CCCc1nn(C)c2c(=O)[nH]c(-c3cc(S(=O)(=O)N4CCN(C)CC4)ccc3OCC)nc12,"parasite growth, immunofluorescence imaging","HCT-8, Iowa",667 nM,,inhibition,-6.94% and -23.9%
COc1ccc(NC(=O)N2CCCCN3C[C@H](c4ccc(C#Cc5ccccc5)cc4)[C@@H]3C2)cc1,"parasite growth, high-content microscopy",Iowa (Bunch Grass Farm),10% FBS,,EC50,0.062 µM
CC(O)CN (stereo not drawn),image-based,HCT-8,"1 mM, 24 h post-infection",relative to: PBS,relative parasite number,0.957 ± 0.104
COc1ccc(NC(=O)N2CCCCN3[C@H](COCCC(=O)O)[C@H](c4ccc(C#Cc5ccccc5)cc4)[C@@H]3C2)cc1,"parasite growth, high-content microscopy",Iowa (Bunch Grass Farm),1% FBS,,EC50,0.004 µM
CC(=O)N[C@@H](CCCN)C(=O)O,image-based,HCT-8,"1 mM, 24 h post-infection",relative to: PBS,relative parasite number,1.07 ± 0.138
O=C(Cc1ccc(Cl)cc1)N1CCN(c2ccc3nncn3n2)CC1,high-content imaging,HCT-8,,,EC50,0.66 µM
CC(C)C(=O)C(=O)[O-].[Na+],image-based,HCT-8,"1 mM, 24 h post-infection",relative to: PBS,relative parasite number,0.965 ± 0.163
O=C(Cc1ccc(F)c(C(F)(F)F)c1)N1CCN(c2ccc3nncn3n2)CC1,,"NSG mouse, persistent infection",oral,,ED90,< 5 mg/kg twice daily
Cc1ncc(CO)c(CN)c1O.Cl.Cl,image-based,HCT-8,"1 mM, 24 h post-infection",relative to: PBS,relative parasite number,1.02 ± 0.141
O=C1NC(=O)/C(=C/c2ccc3ncnc(N4CCC(F)(F)CC4)c3n2)S1,"parasite growth, immunofluorescence microscopy","HCT-8, Iowa","48 h post infection, compound added at 3 h",,EC50,0.13 µM

# Repeated from above:
SMILES,test,test system,conditions,how to read,measurement,value
COc1ccc(NC(=O)N2CCCCN3[C@H](CN(C)C)[C@H](c4ccc(C#Cc5ccccc5)cc4)[C@@H]3C2)cc1,,HCT-8,"concentration not given, 99.9% elimination",,time to eliminate parasites,~95 h
O=C(Cc1cc(Cl)cc(C(F)(F)F)c1)N1CCN(c2ccc3nncn3n2)CC1,"parasite growth, high-content microscopy",HCT-8,,"relative to: 3,5-dichloro analogue over compound EC50",potency fold increase,2 fold
CCCc1nn(C)c2c(=O)[nH]c(-c3cc(S(=O)(=O)N4CCN(C)CC4)ccc3OCC)nc12,"parasite growth, immunofluorescence imaging","HCT-8, Iowa",667 nM,,inhibition,-6.94% and -23.9%
